# Assay results gathered from unrelated publications.
# A part holds a random share of what one study measured.

# Sample 1
# Target: RNA binding protein fox-1 homolog 2, RRM domain, GST-SBP tag (RBFOX2, Homo sapiens, UniProt O43251-10, residues 100-194)
# Technique: RNA Bind-n-Seq
# Form: RNA
# Matrix: in vitro
# Tested at: 365 nM
# Notes: natural RNA segment, single round, ends assumed
# Reference: no-protein control
# Reading: higher = stronger binding
# Construct (chain): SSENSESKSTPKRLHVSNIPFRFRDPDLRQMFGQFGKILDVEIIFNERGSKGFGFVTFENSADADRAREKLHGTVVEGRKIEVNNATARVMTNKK
Strand,RBNS enrichment (R)
GGGAGUUCUACAGUCCGACGAUCGUUGGAUAUAAAUAGGAAUUUUUACACAUUACUAUUGUGAAUGGUGAAUGUUCAUGUAUGACCUACUUGUAAUUAACUUGAGUUGUAGUCCACAGCCUCAGGACAAAUGUUGGAAUUCUCGGGUGCCAA,0.359
GGGAGUUCUACAGUCCGACGAUCAAUGAAAGAAAGGAAUUGUAUUUACCUUUUAUAAUUAUUAUUAGUGUGGGUAUGGCUAAUGAGUUCUGAUUCACCCACGAAGGUUACAUUUAUGCUGAAUACAUUUGUAAUGGAAUUCUCGGGUGCCAA,0.637
GGGAGUUCUACAGUCCGACGAUCCAGCCCAGGAUGGGAGUAGGGUAUGCCAUAUCCCACAGGGGCUAUGAGUAGGUACCAGAUACCAACUCAGUAAUUAAUUUUGUAGCAUUGUCCCCAAGCUCUGGAUUUUUUGGAAUUCUCGGGUGCCAA,0.418

# Sample 2
# Target: Fragile X messenger ribonucleoprotein 1, C-terminal low-complexity region (Fmr1, Mus musculus, UniProt P35922)
# Technique: RNA Bind-n-Seq
# Form: RNA
# Matrix: in vitro
# Tested at: 200 nM
# Notes: whole 134-nt RNA, ends assumed
# Added: 150 mM KCl
# Reference: input library
# Reading: higher = stronger binding
Strand,log2 enrichment
GGGAGUUCUACAGUCCGACGAUCGCAGGAAGUAAAAACAAAUGGAAAUGCUUCGGAUAGUGGCAGGGGUGGGGGUUGCUAAGGAACGGGUGGGAUGGGAGUGGGUAAAGAGUUUGGAAUUCUCGGGUGUCAAGG,0.143
GGGAGUUCUACAGUCCGACGAUCACCAUGCAGGUGGGCAUCUUUGGGAAGUGGGGCAAGGGGGGGAGAGGGAGGGGGGUAACACUUUGGGAACAGGUGGUCCCAGGUCGUUUCUGGAAUUCUCGGGUGUCAAGG,0.678
GGGAGUUCUACAGUCCGACGAUCUAACUUUAGAGGAGGAUCUGAUGGAUAUGGCAGUGGACGUAGAUUUGGGGAUGGCUAUAAUGGGUAUGGAGGAGGACCUGGAGGUGGCAAUGGAAUUCUCGGGUGUCAAGG,0.23

# Sample 3
# Target: Interferon regulatory factor 5, full length, phosphomimetic (IRF5, Homo sapiens, UniProt Q13568-2, residues 1-514, K96S/S451D/S453D/S456D/S462D)
# Technique: protein-binding microarray
# Form: double-stranded DNA, one strand shown
# Matrix: in vitro
# Tested at: 250 nM
# Notes: 60-bp whole probe
# Added: salmon DNA 0.4 mg/ml
# Reference: random background probes
# Reading: higher = stronger binding
Strand,log fluorescence [z-score]
GCCTAGCACTCAAGTCTAGCCATTGTGACTGTGCTAGTCTTGATTCGCTTGACGCTGCTG,-0.0649
GCCTAGCACAATTCTTTGCTCATTTTTCAGGTGCTAGTCTTGATTCGCTTGACGCTGCTG,0.932
GCCTAGCACACCCGAGACACCGCCCCTTTGTGCTAGGTCTTGATTCGCTTGACGCTGCTG,-0.328

# Further values, each from its own experiment
Molecule,target,test,system,conditions,scale,measurement,result
"PhoQ, residues 284 288 289 292 302 303 SACGEM","PhoP, residues 12 14 15 18 19 TTLRV (Escherichia coli, UniProt P23836)","Sort-seq, refers to: YFP reporter",E. coli,"PhoQ-PhoP variant library, added: 10 µM Mg2+","reference: high Mg2+ state, higher = stronger signaling",fold induction,6.96
